# Published values gathered from unrelated publications.
# Each numbered part is a random draw from the data of one study; scales do not carry over between parts.
# UniProt P22607, sequence (whole entry, unmodified, looked up): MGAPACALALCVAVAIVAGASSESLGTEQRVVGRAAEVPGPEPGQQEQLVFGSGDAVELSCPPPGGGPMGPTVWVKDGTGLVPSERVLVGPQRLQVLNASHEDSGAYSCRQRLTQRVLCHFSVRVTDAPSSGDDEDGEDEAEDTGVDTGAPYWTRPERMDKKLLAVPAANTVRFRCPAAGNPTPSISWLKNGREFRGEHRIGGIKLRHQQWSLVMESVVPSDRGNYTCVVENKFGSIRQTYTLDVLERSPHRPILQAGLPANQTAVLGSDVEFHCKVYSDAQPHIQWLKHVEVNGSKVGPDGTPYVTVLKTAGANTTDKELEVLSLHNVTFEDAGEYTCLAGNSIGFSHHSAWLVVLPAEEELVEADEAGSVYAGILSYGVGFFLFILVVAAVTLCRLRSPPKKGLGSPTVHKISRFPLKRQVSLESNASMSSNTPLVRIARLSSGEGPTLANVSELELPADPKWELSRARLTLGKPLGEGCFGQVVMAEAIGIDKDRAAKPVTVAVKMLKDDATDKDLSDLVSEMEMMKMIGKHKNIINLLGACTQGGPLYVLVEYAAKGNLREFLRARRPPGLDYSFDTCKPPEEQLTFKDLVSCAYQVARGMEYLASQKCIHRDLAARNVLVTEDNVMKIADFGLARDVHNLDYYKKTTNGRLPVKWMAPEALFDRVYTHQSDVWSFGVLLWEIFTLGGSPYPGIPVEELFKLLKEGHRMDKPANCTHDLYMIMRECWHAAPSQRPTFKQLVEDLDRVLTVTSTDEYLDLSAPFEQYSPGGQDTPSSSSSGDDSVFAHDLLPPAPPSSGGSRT
# UniProt Q8N5S9, sequence (whole entry, looked up): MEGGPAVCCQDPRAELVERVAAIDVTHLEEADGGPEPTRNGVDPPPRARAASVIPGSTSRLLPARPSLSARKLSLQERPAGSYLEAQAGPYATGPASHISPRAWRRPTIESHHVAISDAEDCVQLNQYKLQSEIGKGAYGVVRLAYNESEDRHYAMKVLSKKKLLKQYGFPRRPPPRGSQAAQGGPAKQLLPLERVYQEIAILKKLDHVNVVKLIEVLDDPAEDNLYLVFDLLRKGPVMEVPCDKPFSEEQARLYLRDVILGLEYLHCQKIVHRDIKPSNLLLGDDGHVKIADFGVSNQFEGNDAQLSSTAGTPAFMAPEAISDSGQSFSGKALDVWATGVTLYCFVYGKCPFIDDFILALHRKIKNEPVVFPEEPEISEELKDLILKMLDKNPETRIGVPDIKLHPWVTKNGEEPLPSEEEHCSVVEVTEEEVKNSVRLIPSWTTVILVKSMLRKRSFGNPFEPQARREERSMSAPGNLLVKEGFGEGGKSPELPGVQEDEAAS
# UniProt Q8NFD2, sequence (whole entry, looked up): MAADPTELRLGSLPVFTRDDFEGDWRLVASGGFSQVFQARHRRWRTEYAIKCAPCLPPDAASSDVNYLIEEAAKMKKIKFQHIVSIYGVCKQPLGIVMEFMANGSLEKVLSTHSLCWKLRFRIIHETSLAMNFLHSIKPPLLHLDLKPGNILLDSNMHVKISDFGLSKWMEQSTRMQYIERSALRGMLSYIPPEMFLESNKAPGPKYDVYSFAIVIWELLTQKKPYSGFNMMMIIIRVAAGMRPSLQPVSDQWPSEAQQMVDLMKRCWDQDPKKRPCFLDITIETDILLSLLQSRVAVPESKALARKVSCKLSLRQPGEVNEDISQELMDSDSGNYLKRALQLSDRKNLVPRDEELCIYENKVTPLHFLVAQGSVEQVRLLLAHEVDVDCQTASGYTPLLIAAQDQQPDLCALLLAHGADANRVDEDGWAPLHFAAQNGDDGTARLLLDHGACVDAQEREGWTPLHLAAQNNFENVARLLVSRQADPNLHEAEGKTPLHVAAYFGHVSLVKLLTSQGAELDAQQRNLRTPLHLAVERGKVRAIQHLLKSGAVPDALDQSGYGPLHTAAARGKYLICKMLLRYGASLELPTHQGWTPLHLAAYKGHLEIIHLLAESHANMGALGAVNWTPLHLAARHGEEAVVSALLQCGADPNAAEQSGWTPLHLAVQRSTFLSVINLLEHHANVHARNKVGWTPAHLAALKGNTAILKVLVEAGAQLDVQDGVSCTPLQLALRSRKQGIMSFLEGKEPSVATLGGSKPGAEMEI
# UniProt P51957, sequence (whole entry, looked up): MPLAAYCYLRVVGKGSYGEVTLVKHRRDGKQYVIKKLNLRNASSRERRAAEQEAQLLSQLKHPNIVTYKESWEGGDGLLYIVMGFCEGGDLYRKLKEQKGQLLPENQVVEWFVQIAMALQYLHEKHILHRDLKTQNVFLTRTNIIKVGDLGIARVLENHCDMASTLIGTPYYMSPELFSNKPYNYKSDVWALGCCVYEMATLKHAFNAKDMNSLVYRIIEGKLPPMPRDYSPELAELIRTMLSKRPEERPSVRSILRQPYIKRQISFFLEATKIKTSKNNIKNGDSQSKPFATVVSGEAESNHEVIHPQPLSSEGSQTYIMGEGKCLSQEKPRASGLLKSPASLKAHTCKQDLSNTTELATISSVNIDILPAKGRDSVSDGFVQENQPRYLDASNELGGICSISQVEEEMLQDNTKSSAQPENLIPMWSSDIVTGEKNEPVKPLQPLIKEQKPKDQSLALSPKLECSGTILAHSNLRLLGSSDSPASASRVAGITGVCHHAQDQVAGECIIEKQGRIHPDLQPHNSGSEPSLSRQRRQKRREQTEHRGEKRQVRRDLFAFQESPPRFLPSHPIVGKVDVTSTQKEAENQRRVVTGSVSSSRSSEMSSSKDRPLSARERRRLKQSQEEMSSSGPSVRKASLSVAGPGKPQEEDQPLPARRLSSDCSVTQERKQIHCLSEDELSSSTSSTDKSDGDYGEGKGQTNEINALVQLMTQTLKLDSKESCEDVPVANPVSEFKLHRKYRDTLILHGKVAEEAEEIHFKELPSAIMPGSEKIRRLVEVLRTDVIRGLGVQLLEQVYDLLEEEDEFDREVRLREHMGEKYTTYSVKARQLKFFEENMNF
# UniProt P25098, sequence (whole entry, looked up): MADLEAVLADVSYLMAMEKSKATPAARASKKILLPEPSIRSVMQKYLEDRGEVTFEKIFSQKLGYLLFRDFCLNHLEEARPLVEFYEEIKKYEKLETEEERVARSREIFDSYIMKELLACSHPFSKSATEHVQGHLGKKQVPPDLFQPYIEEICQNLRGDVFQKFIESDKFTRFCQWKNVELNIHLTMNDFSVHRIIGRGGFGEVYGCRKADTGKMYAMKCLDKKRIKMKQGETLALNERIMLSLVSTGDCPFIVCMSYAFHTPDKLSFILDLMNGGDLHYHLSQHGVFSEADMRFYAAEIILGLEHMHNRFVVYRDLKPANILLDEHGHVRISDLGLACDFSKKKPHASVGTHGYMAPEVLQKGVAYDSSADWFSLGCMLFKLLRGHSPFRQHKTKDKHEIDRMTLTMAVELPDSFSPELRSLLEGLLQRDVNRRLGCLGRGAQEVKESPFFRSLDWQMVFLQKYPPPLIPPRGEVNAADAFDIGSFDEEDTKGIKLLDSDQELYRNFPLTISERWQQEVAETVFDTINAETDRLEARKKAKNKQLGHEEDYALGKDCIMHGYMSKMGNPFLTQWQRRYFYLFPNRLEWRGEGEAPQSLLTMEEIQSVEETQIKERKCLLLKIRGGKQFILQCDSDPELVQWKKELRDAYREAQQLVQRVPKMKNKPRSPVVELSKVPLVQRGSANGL
# UniProt Q8IU85, sequence (whole entry, looked up): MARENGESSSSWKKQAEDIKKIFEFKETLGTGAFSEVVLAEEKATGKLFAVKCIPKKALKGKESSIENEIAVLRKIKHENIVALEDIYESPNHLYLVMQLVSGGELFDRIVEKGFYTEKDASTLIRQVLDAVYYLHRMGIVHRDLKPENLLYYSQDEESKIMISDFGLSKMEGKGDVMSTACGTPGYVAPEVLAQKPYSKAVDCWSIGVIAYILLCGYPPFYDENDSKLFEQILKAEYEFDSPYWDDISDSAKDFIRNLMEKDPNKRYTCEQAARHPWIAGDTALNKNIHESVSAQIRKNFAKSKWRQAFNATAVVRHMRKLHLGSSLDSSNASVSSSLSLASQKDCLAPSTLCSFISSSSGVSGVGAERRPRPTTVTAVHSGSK
# UniProt P46734, sequence (whole entry, looked up): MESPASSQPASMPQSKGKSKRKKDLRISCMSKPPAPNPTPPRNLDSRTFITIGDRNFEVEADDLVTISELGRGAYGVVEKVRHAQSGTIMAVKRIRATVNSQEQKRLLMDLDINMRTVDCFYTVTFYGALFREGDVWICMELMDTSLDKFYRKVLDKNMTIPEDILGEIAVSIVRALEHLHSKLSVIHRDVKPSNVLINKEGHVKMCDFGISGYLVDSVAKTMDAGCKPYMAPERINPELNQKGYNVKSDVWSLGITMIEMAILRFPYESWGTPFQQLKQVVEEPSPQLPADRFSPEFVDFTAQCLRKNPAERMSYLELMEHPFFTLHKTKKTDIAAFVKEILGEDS

# Series 1
# Target: panel of 300 human kinases
# Concentration: 0.5 µM
# Direction: higher = more selective
SMILES,Gini score
Cc1ccc(Nc2nccc(N(C)c3ccc4c(C)n(C)nc4c3)n2)cc1S(N)(=O)=O,0.71
NC(=O)c1cccc(-c2cc(Nc3ccc(OC(F)(F)F)cc3)ncn2)c1,0.64
COc1cc2nccc(Oc3ccc(NC(=S)NC(=O)c4ccccc4C)cc3)c2cc1OC,0.67
CC(C)[C@H](CO)Nc1nc(Nc2cc(N)cc(Cl)c2)c2ncn(C(C)C)c2n1,0.62
Nc1ncnc2n[nH]c(Nc3ccc(F)cc3)c12,0.63
N#CC(c1ccnc(NCCc2cccnc2)n1)c1nc2ccccc2s1 (centres unmarked),0.67
O=c1c2ccccc2[nH]c(=S)n1CCN1CCC(=C(c2ccc(F)cc2)c2ccc(F)cc2)CC1,0.74

# Series 2
# SMILES: CC(C)(C)c1nc(-c2cccc(NS(=O)(=O)c3c(F)cccc3F)c2F)c(-c2ccnc(N)n2)s1
# Target: Receptor-interacting serine/threonine-protein kinase 3 (RIPK3, Homo sapiens, UniProt Q9Y572)
# UniProt Q9Y572, sequence (whole entry, looked up): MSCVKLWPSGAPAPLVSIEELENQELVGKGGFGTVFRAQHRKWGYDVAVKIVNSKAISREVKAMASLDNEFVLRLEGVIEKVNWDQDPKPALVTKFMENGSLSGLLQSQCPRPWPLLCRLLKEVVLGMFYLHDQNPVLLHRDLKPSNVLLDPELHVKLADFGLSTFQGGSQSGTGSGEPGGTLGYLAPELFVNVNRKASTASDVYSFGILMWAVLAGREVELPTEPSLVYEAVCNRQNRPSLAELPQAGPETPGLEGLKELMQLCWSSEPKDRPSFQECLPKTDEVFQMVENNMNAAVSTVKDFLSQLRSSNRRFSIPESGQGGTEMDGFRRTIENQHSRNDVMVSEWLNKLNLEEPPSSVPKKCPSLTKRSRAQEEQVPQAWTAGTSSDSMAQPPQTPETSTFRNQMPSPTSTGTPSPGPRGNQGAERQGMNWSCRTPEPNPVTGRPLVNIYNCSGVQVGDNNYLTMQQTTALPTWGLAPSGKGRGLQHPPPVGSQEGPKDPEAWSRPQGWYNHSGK
# Observed: kinase activity
# Action: inhibitor
# Time: 1 h
method,concentration,inhibition [%]
ADP-Glo,62.5 nM,74.2
ADP-Glo kinase,1000 nM,100
ADP-Glo,125 nM,92.2
ADP-Glo,31.25 nM,69
ADP-Glo,500 nM,101

# Series 3
# Host: human
# Medium: microsomes or S9
# Concentration: 2 µM
# Time: 0.5 h
SMILES,remaining compound [%]
CC(C)[C@@H](C(=O)Nc1n[nH]c2cccc(F)c12)N1Cc2ccccc2C1=O,71.7
O=c1c2ncn(C3CCS(=O)(=O)C3)c2ncn1Cc1ccc(F)cc1 (centres unmarked),88.8
Cc1cc(C)c(C)c(OCCCN2CCOCC2)c1,93.2
O=c1[nH]c2cc(-c3noc(-c4ccc(F)c(F)c4)n3)ccc2n1C1CCCC1,> 99.9
CCN1CCCC1CNC(=O)c1n[nH]c2c1CCC2 (centres unmarked),86.1
CCOC(=O)c1c(=O)n2cccnc2c2c(C)cccc12,1.96
Cc1ccc(N(CC(O)CN2CCCCC2)S(=O)(=O)c2ccc3ccccc3c2)cc1 (centres unmarked),6.17
Fc1ccc(-c2cc3nc4c(c(NCC5CCCO5)n3n2)CCCC4)cc1 (centres unmarked),9.12
CCCS(=O)(=O)N1CC(=O)N(c2ccc(F)cc2F)C(C)(C(=O)NC2CCCCCCC2)C1 (centres unmarked),0.575
Cc1ccc2nc(-c3nnc(-c4noc5c4CC(C)CC5)o3)ccc2c1 (centres unmarked),0.512

# Series 4
# SMILES: CCCOc1ccc([C@@H]2[C@@H](C(=O)O)[C@H](c3ccc4c(c3)OCO4)CN2CC(=O)Nc2c(CC)cccc2CC)cc1
# Method: competition with immobilised ligand
# Concentration: 1 µM
target,observed,remaining binding [%]
"Ribosomal protein S6 kinase alpha-4, C-terminal kinase domain (RPS6KA4, Homo sapiens, UniProt O75676)",cell-free assay,90
"Activin receptor type-1 (ACVR1, Homo sapiens, UniProt Q04771)",cell-free assay,95
"Membrane-associated tyrosine- and threonine-specific cdc2-inhibitory kinase (PKMYT1, Homo sapiens, UniProt Q99640)",cell-free assay,100
"Receptor-type tyrosine-protein kinase FLT3 (FLT3, Homo sapiens, UniProt P36888, D835H)",cell-free assay,100
"Ankyrin repeat and protein kinase domain-containing protein 1 (ANKK1, Homo sapiens, UniProt Q8NFD2)",cell-free assay,73
"Calcium/calmodulin-dependent protein kinase kinase 1 (CAMKK1, Homo sapiens, UniProt Q8N5S9)",cell-free assay,81
"Dual specificity mitogen-activated protein kinase kinase 4 (MAP2K4, Homo sapiens, UniProt P45985)",cell-free assay,83
"Cyclin-dependent kinase 4, with cyclin D3 (CDK4, Homo sapiens, UniProt P11802)",cell-free assay,96
"Tyrosine-protein kinase ABL1, phosphorylated (ABL1, Homo sapiens, UniProt P00519, E255K)",binding,82
"Proto-oncogene tyrosine-protein kinase receptor Ret (RET, Homo sapiens, UniProt P07949)",cell-free assay,97
"Calcium/calmodulin-dependent protein kinase type 1D (CAMK1D, Homo sapiens, UniProt Q8IU85)",cell-free assay,97
"Tyrosine-protein kinase Fes/Fps (FES, Homo sapiens, UniProt P07332)",cell-free assay,97
"Dual specificity mitogen-activated protein kinase kinase 3 (MAP2K3, Homo sapiens, UniProt P46734)",cell-free assay,82
"Fibroblast growth factor receptor 3 (FGFR3, Homo sapiens, UniProt P22607)",cell-free assay,100
"Beta-adrenergic receptor kinase 1 (GRK2, Homo sapiens, UniProt P25098)",cell-free assay,89
"Tyrosine-protein kinase Fer (FER, Homo sapiens, UniProt P16591)",cell-free assay,100
"Cyclin-dependent kinase 13 (CDK13, Homo sapiens, UniProt Q14004)",cell-free assay,81
"Serine/threonine-protein kinase Nek4 (NEK4, Homo sapiens, UniProt P51957)",cell-free assay,72
"Rhodopsin kinase GRK1 (GRK1, Homo sapiens, UniProt Q15835)",cell-free assay,100
"Serine/threonine-protein kinase PAK 1 (PAK1, Homo sapiens, UniProt Q13153)",cell-free assay,98
"Fibroblast growth factor receptor 3 (FGFR3, Homo sapiens, UniProt P22607, G697C)",cell-free assay,99
"Tyrosine-protein kinase Yes (YES1, Homo sapiens, UniProt P07947)",cell-free assay,90

# Some of these lines once more (series 2):
method,concentration,inhibition [%]
ADP-Glo,62.5 nM,74.2
ADP-Glo kinase,1000 nM,100
ADP-Glo,125 nM,92.2
ADP-Glo,31.25 nM,69
ADP-Glo,500 nM,101
